Measurements pooled from the literature.
Numbered parts are unrelated; each lists some results of a single study.
Chain of UniProt P42336 (whole entry, unmodified, looked up): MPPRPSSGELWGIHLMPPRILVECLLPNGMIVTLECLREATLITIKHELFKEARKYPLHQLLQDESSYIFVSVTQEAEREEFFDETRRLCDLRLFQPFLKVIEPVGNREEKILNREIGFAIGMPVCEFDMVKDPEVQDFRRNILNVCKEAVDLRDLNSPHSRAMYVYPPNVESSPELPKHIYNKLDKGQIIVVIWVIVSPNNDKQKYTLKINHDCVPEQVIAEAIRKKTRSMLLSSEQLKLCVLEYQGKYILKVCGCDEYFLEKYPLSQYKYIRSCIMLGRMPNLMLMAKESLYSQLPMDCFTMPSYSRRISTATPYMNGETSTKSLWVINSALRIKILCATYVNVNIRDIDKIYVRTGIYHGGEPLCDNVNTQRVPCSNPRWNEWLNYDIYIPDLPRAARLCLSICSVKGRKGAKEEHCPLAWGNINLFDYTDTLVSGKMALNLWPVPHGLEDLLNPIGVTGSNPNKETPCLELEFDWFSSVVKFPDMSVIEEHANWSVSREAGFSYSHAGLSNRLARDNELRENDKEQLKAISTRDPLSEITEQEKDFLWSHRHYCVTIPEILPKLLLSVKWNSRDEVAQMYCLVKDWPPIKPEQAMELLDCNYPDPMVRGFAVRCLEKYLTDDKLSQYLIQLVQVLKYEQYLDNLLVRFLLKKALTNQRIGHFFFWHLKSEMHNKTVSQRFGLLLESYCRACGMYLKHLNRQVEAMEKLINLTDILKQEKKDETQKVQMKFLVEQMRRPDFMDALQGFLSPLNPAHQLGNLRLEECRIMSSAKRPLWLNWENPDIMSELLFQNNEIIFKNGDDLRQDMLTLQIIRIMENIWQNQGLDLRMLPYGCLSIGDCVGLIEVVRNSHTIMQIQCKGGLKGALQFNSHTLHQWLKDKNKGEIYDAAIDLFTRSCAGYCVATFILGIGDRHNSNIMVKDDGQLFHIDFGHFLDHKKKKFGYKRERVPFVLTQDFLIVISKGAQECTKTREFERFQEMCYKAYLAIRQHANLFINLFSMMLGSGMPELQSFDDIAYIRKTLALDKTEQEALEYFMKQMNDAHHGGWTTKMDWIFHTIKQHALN
Chain of UniProt P07949 (whole entry, unmodified, looked up): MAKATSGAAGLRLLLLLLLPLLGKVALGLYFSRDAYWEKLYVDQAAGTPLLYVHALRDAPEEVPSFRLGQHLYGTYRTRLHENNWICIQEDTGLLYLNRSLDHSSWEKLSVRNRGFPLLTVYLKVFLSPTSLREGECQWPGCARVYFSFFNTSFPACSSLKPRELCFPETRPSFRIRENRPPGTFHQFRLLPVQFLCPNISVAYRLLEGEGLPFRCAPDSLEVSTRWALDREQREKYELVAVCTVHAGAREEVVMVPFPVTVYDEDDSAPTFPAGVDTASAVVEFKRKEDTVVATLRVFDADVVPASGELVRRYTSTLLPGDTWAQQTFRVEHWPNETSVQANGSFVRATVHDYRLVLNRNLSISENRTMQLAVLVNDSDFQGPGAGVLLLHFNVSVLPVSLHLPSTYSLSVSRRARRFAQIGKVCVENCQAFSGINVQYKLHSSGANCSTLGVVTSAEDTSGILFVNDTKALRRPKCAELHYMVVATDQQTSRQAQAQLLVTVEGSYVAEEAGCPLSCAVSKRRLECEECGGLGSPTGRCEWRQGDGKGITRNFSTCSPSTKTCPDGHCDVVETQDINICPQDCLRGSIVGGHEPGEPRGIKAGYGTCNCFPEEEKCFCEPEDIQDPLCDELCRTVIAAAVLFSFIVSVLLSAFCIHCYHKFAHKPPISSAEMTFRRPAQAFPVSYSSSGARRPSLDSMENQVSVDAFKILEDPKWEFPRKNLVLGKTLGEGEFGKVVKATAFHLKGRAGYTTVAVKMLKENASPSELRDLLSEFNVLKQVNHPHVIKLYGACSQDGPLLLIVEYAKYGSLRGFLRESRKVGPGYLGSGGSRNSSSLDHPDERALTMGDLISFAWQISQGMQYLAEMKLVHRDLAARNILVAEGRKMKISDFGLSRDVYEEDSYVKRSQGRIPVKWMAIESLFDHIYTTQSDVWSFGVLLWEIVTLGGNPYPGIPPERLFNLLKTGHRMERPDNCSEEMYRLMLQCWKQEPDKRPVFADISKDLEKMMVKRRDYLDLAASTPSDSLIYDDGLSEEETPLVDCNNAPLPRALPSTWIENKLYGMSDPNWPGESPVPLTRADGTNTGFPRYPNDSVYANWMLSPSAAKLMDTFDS
Chain of UniProt P57078 (whole entry, looked up): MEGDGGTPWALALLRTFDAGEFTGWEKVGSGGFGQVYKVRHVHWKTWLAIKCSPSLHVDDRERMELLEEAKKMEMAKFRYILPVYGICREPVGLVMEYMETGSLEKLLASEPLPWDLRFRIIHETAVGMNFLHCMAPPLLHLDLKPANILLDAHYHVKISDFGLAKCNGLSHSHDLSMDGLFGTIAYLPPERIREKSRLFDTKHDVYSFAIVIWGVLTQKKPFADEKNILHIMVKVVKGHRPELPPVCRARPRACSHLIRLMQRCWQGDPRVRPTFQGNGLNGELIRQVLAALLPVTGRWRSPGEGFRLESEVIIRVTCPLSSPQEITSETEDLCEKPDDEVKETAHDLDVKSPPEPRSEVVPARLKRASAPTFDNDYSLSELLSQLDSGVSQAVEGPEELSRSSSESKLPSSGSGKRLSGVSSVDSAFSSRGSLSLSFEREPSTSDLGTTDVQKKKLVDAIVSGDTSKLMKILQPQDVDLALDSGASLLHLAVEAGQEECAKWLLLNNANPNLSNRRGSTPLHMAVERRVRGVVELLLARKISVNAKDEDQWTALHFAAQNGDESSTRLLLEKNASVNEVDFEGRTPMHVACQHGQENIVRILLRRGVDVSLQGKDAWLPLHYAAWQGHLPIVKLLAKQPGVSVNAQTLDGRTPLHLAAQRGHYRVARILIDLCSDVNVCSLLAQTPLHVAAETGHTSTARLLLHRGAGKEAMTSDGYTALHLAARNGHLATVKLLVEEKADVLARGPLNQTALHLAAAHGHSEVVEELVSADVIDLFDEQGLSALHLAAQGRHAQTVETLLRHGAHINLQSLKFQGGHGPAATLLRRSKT
Chain of UniProt Q7L7X3 (whole entry, looked up): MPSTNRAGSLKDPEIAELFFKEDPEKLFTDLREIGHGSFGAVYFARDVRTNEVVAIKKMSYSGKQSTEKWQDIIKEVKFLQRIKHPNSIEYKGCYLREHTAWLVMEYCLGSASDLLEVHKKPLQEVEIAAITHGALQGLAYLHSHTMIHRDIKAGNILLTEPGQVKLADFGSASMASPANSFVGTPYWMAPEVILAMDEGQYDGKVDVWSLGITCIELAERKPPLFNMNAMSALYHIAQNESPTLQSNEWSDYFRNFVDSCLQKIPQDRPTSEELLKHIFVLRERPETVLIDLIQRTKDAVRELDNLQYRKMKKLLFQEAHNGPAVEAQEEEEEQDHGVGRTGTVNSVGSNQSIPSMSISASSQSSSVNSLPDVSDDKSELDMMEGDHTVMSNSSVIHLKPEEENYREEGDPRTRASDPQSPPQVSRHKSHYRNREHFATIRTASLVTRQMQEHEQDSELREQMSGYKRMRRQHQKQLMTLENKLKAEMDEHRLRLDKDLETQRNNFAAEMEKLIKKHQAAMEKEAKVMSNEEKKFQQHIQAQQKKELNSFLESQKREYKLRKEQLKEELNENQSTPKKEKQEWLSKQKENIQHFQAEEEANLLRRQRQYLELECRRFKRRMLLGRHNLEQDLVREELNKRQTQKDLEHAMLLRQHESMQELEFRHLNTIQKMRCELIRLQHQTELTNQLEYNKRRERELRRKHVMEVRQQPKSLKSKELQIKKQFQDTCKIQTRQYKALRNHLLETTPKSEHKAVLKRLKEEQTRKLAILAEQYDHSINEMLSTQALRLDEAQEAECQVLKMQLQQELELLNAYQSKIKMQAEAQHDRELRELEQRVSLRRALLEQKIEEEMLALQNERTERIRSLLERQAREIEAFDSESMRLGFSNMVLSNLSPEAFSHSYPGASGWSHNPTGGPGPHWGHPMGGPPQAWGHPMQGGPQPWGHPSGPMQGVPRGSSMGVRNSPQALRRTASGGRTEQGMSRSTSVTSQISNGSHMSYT

Study 1 — read-out: enzyme activity; mode: inhibitor; tested at: 1 µM
SMILES: C=CC(=O)N1CCC([C@@H]2CCNc3c(C(N)=O)c(-c4ccc(Oc5ccccc5)cc4)nn32)CC1
MAPK12 (Homo sapiens, UniProt P53778) — inhibition: 37%.
RET (Homo sapiens, UniProt P07949, V804M) — inhibition: 0%.
For MAP2K3 (Homo sapiens, UniProt P46734): inhibition read 23%.
For Receptor-type tyrosine-protein kinase FLT3, autoinhibited (FLT3, Homo sapiens, UniProt P36888): inhibition read 12%.
MINK1 (Homo sapiens, UniProt Q8N4C8) — inhibition: 53%.
For RIPK4 (Homo sapiens, UniProt P57078): inhibition read 0%.

Study 2 — technique: phase 2a trial; species: idiopathic pulmonary fibrosis patients
Structure (SMILES): CC(C)n1cnc(-c2ccc(F)cc2)c1-c1ncc(C(=O)Nc2ccc(N3CCN(C)CC3)cc2)[nH]1
dose not given, adverse event grade 4, all dose arms pooled — “patients with dyspnoea”: 0%.
It gave 0% for “patients with dyspnoea” (dose not given, adverse event grade 5, all dose arms pooled).
It gave 0% for “patients with dyspnoea” (30 mg once daily, adverse event grade 2).
30 mg once daily, adverse event grade 3 — “patients with dyspnoea”: 0%.
For dose not given, adverse event grade 3, all dose arms pooled: “patients with dyspnoea” read 0%.
The “patients with dyspnoea” was 0% (60 mg once daily, adverse event grade 5).

Study 3 — tested at: 1 µM
Compound: C[C@H]1CC[C@H](n2c3cnccc3c3cnc(Nc4ccc5c(n4)CCN(C(=O)CO)C5)nc32)CC1
For PKMYT1 (Homo sapiens, UniProt Q99640); binding, competition with immobilised ligand: remaining binding read 98%.
It gave 57% for remaining binding (CDK7 (Homo sapiens, UniProt P50613); binding, competition with immobilised ligand).
The remaining binding was 77% (TAOK3 (Homo sapiens, UniProt Q9H2K8); binding, competition with immobilised ligand).
The remaining binding was 100% (CDK19 (Homo sapiens, UniProt Q9BWU1); DiscoverX KINOMEscan).
It gave 100% for remaining binding (LIM domain kinase 2 (LIMK2, Homo sapiens, UniProt P53671); binding, competition with immobilised ligand).
It gave 100% for remaining binding (TNNI3K (Homo sapiens, UniProt Q59H18); cell-free assay, competition with immobilised ligand).

Study 4 — read-out: cell-free assay; technique: competition with immobilised ligand; tested at: 1 µM
Structure (SMILES): CNCc1ccccc1-c1csc([C@@H](C)Nc2nc(C)nc3cc(OC)c(OC)cc23)c1
It gave 95% for remaining binding (TAOK1 (Homo sapiens, UniProt Q7L7X3)).
The remaining binding was 100% (PTK2B (Homo sapiens, UniProt Q14289)).
The remaining binding was 76% (TXK (Homo sapiens, UniProt P42681)).
For PIK3CA (Homo sapiens, UniProt P42336, H1047L): remaining binding read 95%.
The remaining binding was 85% (PIK3CA (Homo sapiens, UniProt P42336, I800L)).
The remaining binding was 90% (RET (Homo sapiens, UniProt P07949, V804M)).
For PIKFYVE (Homo sapiens, UniProt Q9Y2I7): remaining binding read 100%.
It gave 90% for remaining binding (PRKD1 (Homo sapiens, UniProt Q15139)).
For EGFR (Homo sapiens, UniProt P00533, G719C): remaining binding read 63%.
For MAP3K20 (Homo sapiens, UniProt Q9NYL2): remaining binding read 75%.
IRAK1 (Homo sapiens, UniProt P51617) — remaining binding: 71%.
For NUAK2 (Homo sapiens, UniProt Q9H093): remaining binding read 97%.
For KIT (Homo sapiens, UniProt P10721, V559D): remaining binding read 100%.
For SGK2 (Homo sapiens, UniProt Q9HBY8): remaining binding read 95%.
Myosin-IIIa (MYO3A, Homo sapiens, UniProt Q8NEV4) — remaining binding: 100%.
It gave 100% for remaining binding (Tyrosine-protein kinase JAK1, JH1 (JAK1, Homo sapiens, UniProt P23458)).
It gave 100% for remaining binding (STK39 (Homo sapiens, UniProt Q9UEW8)).
FLT3 (Homo sapiens, UniProt P36888) — remaining binding: 97%.

For quick reference, copied from above (study 4):
For PIKFYVE (Homo sapiens, UniProt Q9Y2I7): remaining binding read 100%.
FLT3 (Homo sapiens, UniProt P36888) — remaining binding: 97%.
For MAP3K20 (Homo sapiens, UniProt Q9NYL2): remaining binding read 75%.
For NUAK2 (Homo sapiens, UniProt Q9H093): remaining binding read 97%.
